Published values pooled from the literature.
Every numbered part comes from another study and shows a few of its results, in no order.

Series 1 — technique: protein-binding microarray; form: double-stranded DNA, one strand shown; matrix: in vitro; concentration: 2540 nM top; setting: 60-bp whole probe; with: salmon DNA 0.4 mg/ml; baseline: random background probes; reading: higher = stronger binding; measurement: fitted relative affinity; shared flanks, not repeated: GCCTAGCAC … GTCTTGATTCGCTTGACGCTGCTG
Target: Interferon regulatory factor 3, full length, phosphomimetic (IRF3, Homo sapiens, UniProt Q14653, residues 1-427, S386D/S396D/S398D/S402D/T404D/S405D)
Target sequence (chain): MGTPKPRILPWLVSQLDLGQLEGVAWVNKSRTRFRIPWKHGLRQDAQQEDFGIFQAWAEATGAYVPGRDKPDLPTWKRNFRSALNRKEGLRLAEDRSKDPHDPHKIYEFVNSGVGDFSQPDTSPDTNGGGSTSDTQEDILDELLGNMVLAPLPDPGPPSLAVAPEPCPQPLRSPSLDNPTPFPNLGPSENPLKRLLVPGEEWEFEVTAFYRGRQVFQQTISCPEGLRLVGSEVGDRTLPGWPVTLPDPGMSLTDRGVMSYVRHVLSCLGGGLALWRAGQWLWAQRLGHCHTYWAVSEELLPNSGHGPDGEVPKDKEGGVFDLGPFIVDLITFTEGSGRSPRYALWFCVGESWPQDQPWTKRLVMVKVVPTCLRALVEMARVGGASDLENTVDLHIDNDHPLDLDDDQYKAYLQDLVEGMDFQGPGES
TTAGAACTGAGTCTCGATTCGTGCTAG: -0.325 z-score
ATGCTTCTGTATTCATGAAGGTGCTAG: 0.217 z-score
TAAGGTATCCTTATCCTTTAGTGCTAG: 5.47 z-score
TTAGGTTTCCTTTTCCCTTAGTGCTAG: 11.9 z-score
TTTGGACTGGGTTTCGGTTAGTGCTAG: 2.92 z-score
GAATGTGTCTTAAATAGGAGAGTGCTA: 0.556 z-score
TTAGATTTCAGTGTCGATTAGTGCTAG: 1.1 z-score
TTAGGGATCCTTCTCCTTTAGTGCTAG: 5.18 z-score
TTAGAACGGGGGACTGGATTAGTGCTA: -0.25 z-score
TCAATTCTCTGCTTCTGACTGTGCTAG: 0.734 z-score
TGAGGACTGGGGTATCGGTTAGTGCTA: -0.414 z-score
TCCCTTTCAGTTTTCCTATGGTGCTAG: 5.2 z-score
TTAGATCTCGGGTATCGATTAGTGCTA: 0.152 z-score
TCACTTCTGGACTGTTTGACTGTGCTA: 0.841 z-score
TTAGATATCAGCCTGGATTAGTGCTAG: -0.315 z-score
TCAGCTCTGCGGTTCAGACTGTGCTAG: -0.00686 z-score
CTACTTCTCTTTTGGCTTTCGTGCTAG: 2.55 z-score
GACGATCTCAGAGTGGAGACGTGCTAG: 0.0764 z-score
TACCCTTTGAAAGTTGTTTTAGTGCTA: 0.128 z-score
TGAGATTTCGGGACTGGATTAGTGCTA: 1.06 z-score
TCAAGAATCCCCTTCTAACTGTGCTAG: 1.5 z-score

Series 2 — technique: aptamer microarray, sandwich; form: DNA with 2'F-ANA; matrix: in vitro; concentration: 200 nM; with: Cy3 exosite-II aptamer, 400 nM; reading: higher = stronger binding; measurement: mean fluorescence intensity; oligonucleotide: GGTTGGTGTGGTTGG
Target: Prothrombin, mature alpha-thrombin (F2, Homo sapiens, UniProt P00734)
Setting: whole 15-mer aptamer, many near background
2'F-ANA at 2 5 7 8 9 10 13 14: 47.3 a.u.
2'F-ANA at 4 6 8 9 10 11 12 13 15: 75.8 a.u.
2'F-ANA at 1 4 6 7 8 11 15: 135 a.u.
2'F-ANA at 1 2 3 5 6 9 12 13 14: 49.7 a.u.
2'F-ANA at 1 2 3 5 6 7 11: 55.7 a.u.
2'F-ANA at 1 2 4 6 7 8 10 11 13 14: 47.6 a.u.
2'F-ANA at 4 5 7 8 11 12 14: 48.1 a.u.
2'F-ANA at 1 6 9 10 13 14: 44.5 a.u.
2'F-ANA at 1 3 4 7 8 13 15: 181 a.u.
2'F-ANA at 3 5 6 7 9 11 13 15: 70.3 a.u.
2'F-ANA at 1 2 6 8 11 14: 57.7 a.u.
2'F-ANA at 1 4 5 6 7 8 12 13 14 15: 53.5 a.u.
2'F-ANA at 1 9 10 12: 70.6 a.u.
2'F-ANA at 1 8 10 12 13 14: 46.4 a.u.
2'F-ANA at 1 3 4 5 6 11 13 14 15: 101 a.u.
2'F-ANA at 1 2 9 10 13 14: 45.2 a.u.
2'F-ANA at 1 2 3 4 5 7 8 9 11: 58.4 a.u.
2'F-ANA at 2 6 11: 349 a.u.
2'F-ANA at 3 4 5 9 10 13 15: 48.5 a.u.
2'F-ANA at 3 4 6 7 11 12 15: 740 a.u.
2'F-ANA at 1 2 6 8 10 13 14 15: 48.9 a.u.
2'F-ANA at 3 13 14: 641 a.u.
2'F-ANA at 2 4 7 8 10 12 14: 68.3 a.u.

Series 3 — technique: competition protein-binding microarray; form: double-stranded DNA, one strand shown; matrix: in vitro; concentration: 2 µM; with: Pho4 competitor, 0.05 µM; reading: higher = stronger binding; measurement: fluorescence intensity; shared flanks, not repeated: … GTCTTGATTCGCTTGACGCTGCTG
Target: Centromere-binding protein 1, full length, His-tagged (CBF1, Saccharomyces cerevisiae, UniProt P17106, residues 1-351)
Sequence of UniProt P17106 (whole entry, looked up): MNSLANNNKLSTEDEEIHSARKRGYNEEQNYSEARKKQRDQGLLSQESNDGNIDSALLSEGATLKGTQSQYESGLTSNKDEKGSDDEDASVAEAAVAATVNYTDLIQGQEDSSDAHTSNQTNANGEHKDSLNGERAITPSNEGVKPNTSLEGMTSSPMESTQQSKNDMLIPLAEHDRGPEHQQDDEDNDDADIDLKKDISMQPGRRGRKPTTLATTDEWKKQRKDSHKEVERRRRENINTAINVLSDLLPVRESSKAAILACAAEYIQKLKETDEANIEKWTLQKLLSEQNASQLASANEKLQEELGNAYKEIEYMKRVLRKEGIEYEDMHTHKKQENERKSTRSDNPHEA
Setting: whole 60-bp probe, lowest competitor level
GTCTTGTCTCATTTACACGTGTTTTTCCCCACTTCA: 998 a.u.
ACAAAATGGGTATTTCTCGTGATGGTCGTCCCAAAA: 117 a.u.
TCGGACGATAACGCCGGCGTGATGGCCACAGAAACA: 97.2 a.u.
TTGGATGCTTTGGACGACGTGATGGACCATTTGGAA: 88.9 a.u.
TGAACCCCAACCTCATGTGTGACGGCTCTTCTCCCG: 67.9 a.u.
AAGGTTCAAAACAAGCACATGTGTGTTTTGTGACGG: 328 a.u.
CGTCCTAGTGATTGTCAAGTGGGTGCCATGAGGAAG: 98.5 a.u.
GAGTTGCTTGAGGGTCTCGTGATGGCATCTTGCTGT: 407 a.u.
AAATTGGATGAAGTTGTTGTGATGCTCAAGAAAGTT: 76 a.u.
CGTCCTAGTGATTGTACAGTGGGTGCCATGAGGAAG: 82.4 a.u.
TGCCGGTAATGCAAGCTCGTGCTTTCGCGATCGTAG: 87.7 a.u.
ATCAACATCGGCCTCCCCGTGCTAATATGTTAACAG: 121 a.u.
CTTTCCCGATCTTGCACAGTGGGTGTAGCACATTTG: 59.6 a.u.
CGGTAACGTCGCACTCACATGAGTTTTCCTGACTTC: 78.8 a.u.
CTTTCCCGATCTTGGTCGGTGGGTGTAGCACATTTG: 54.5 a.u.
CTAACGAAGGTTTGCGTGGTGGGTGACAAGCCAAGT: 66.8 a.u.
CTTGCCAGAGGCATCTGCTAAGGCGTCCCACAAATC: 68 a.u.

Series 4 — technique: RNA Bind-n-Seq; form: RNA; matrix: in vitro; concentration: 365 nM; baseline: no-protein control; reading: higher = stronger binding; measurement: RBNS enrichment (R)
Target: RNA binding protein fox-1 homolog 2, RRM domain, GST-SBP tag (RBFOX2, Homo sapiens, UniProt O43251-10, residues 100-194)
Setting: natural RNA segment, single round, ends assumed
Shared flanks, not repeated: GGGAGUUCUACAGUCCGACGAUC … UGGAAUUCUCGGGUGCCAA
GAUGUUCAAUCAAUCAGUCACUGUGUCCCAGACAUAUUCAAUAAACACAGAUUGGUACCACCCAGCACGAGGUGUGUGAGGGUCUGUAGUGCGACUGCUGUGGUGCCCAG: 2.1
CCCCCUCAUGGUCGUCUGGGGGACAGAGGUGGUCUGUGUUUACAAGGGCAGUCAAGUCCAGUCACCCAUAUUACUCAUCAAUGUUAGACGAAGCCUUGAGCUGAAGGAGG: 0.619
UCCCCUGACUCCCGUCUCCAUCUGUCACGUGGUUCACCAUCAUCAGGCACCAGGCGCAAACUGCUUCCCGCUGUUGGCCAUCCCUUCCCCAGCCACAGGUGUCCCUGCCC: 0.438
CUGAUGCUGACCAGCCUGUUACAGAUACUUUCUACAACCAAAUUCAGAUUUAUUUUUUAUUAAGCAUUAUACCAUGGGCUGUCCUGUGCUCCUGUCACUCUUCAAAAACA: 2.16
GCUUUGAUCCUGUUUCAGUCAAAGUCAGCUUCAGCCACCCCCUCCAUUCCCUAGCCAGCUCCACCCUUGAUGAAACUGUGGCUAAUGUUCCUUCACUAGGACAGGCACCA: 0.416
ACUCCGUAGAAAGCACUGGAUUUUGUGACAUGUAUAUUAAAAACAGGGCAUUUCAAAGUAAUUUUGCCAAAAUUGUCAUAACUGAAUUUUUGCUGUGUGGACUUUCUGAU: 0.576
GGGUAGCCUGGGUGUAAAACCUGGAGAUGGUGGAUGAUCCCCACGCCACAGCCCUUUUGUCUCUGCAAACUGCCUUCUUCGGAAAGAAGAAGGUGGGAGGAUGUGAAUUG: 0.485
ACACAACAAAUGUAUUAAUAACUACCUUGUUAAACACCUUUUAAUAGCACAAGGUUUUUAUAUUUGCAAGCUGUUGAUAUCUUUCUAAAACUGUUUAGGUUAUAGUCUAU: 0.526
ACUGACUUCAAUAUUUCAGCAGGGUACACAGGCGUUUCCAAGUUUCAGUGACACCGUCCUGCCUAACCAGAUGCGGUCAGCCUCUUCACACCCACCUGGCUUGCAUCCCC: 0.634
AGCCCUGUGUGUGGAAUUCCAGAUUUUUCUUUUCCUUUAAUAUCACUUUAUGGGUUCUAGAUGAUGUUUUGACAUGUGCUCAACCUUGAUUUGUUGAUUUAGUUAAAAUA: 0.706
CACUUGGGAGAGGUGAGGAAGAGCAAGAGAAGCUGGGGGUGUGGAGAGGCAGGUCCCCCAGGCUGGGAUGCUGGCCCCUAGACUAGGGUGCUGACCCCUGGGCUGGGGUG: 0.667
UCCUCUCCCAUCAAAUGGCAUUAACACAAUUGGUAAAGAUGGUCCCUCAAAUGACUCCCCCCCCCCCAUUUUUGUCUUUGGGAACUGAAGUCAGAGGCACCAAGUCUAAC: 0.772

Excerpt of the above (series 1):
TTTGGACTGGGTTTCGGTTAGTGCTAG: 2.92 z-score
TTAGAACGGGGGACTGGATTAGTGCTA: -0.25 z-score
TCACTTCTGGACTGTTTGACTGTGCTA: 0.841 z-score
TACCCTTTGAAAGTTGTTTTAGTGCTA: 0.128 z-score
TCAAGAATCCCCTTCTAACTGTGCTAG: 1.5 z-score
GAATGTGTCTTAAATAGGAGAGTGCTA: 0.556 z-score
CTACTTCTCTTTTGGCTTTCGTGCTAG: 2.55 z-score
TAAGGTATCCTTATCCTTTAGTGCTAG: 5.47 z-score
TGAGGACTGGGGTATCGGTTAGTGCTA: -0.414 z-score
